Results collected from several papers.
Several values in a cell are separate wells, animals, samples, runs or records.
CDK5 with p35: Cyclin-dependent kinase 5, with p35 (CDK5, Homo sapiens, UniProt Q00535)
CDK5: Cyclin-dependent kinase 5 (CDK5, Homo sapiens, UniProt Q00535)
CDK5 with p25: Cyclin-dependent kinase 5, with p25 (CDK5, Homo sapiens, UniProt Q00535)

target	test	conditions	how to read	endpoint	value	Structure (SMILES)
CDK5 with p35	kinase activity, inhibitor	1 µM	baseline: untreated control	remaining activity	104%	COc1c(OCCCN2CCOCC2)ccc2c1N=C(NC(=O)c1cnc(N)nc1)N1CCN=C21
CDK5	cell-free assay, competition with immobilised ligand	1 µM	–	remaining binding	100%	C=CC(=O)N1CCCC(n2c(=O)c3ncccc3n(Cc3ccc(Oc4ccccc4)cc3)c2=O)C1 (stereo not drawn)
CDK5 with p25	enzyme activity, inhibitor	1 µM	–	activity vs control	103%	CNC(=O)C[C@H](Cc1ccc(C#N)cc1)NC(=O)c1cc(-c2ccc(CN[C@H](C)c3ccc(C)cc3)o2)ccc1Cl
CDK5 with p35	enzyme activity	1 µM	baseline: DMSO control	remaining activity	98.5%	Nc1ncc(-c2cc(-c3cnn(CC(F)(F)F)c3)ncc2F)nc1C(=O)NC1CNCC(F)C1 (stereo not drawn)
CDK5	binding, competition with immobilised ligand	1 µM	–	remaining binding	93%	Nc1ncc2c(n1)-c1c([nH]c3ccc(C4=CCOCC4)cc13)CCC2
CDK5 with p25	enzyme activity, inhibitor, ADP detection	1 µM	–	activity vs control	115%	CCc1nnc(Nc2cnc([C@@H]3CCCN(C(=O)CCc4cccnc4)C3)cn2)s1
CDK5	binding, competition with immobilised ligand	1 µM	–	remaining binding	16%	C[C@]1(O)CCCN(c2nc(Nc3ccc(S(=O)(=O)N[C@H]4CC[C@H](CN5CCN(c6ccc(C7CCC(=O)NC7=O)cc6F)CC5)CC4)cc3)ncc2C(F)(F)F)C1 (stereo partly drawn)
CDK5	binding	0.1 µM	–	remaining binding	100%	Cc1cnc2nc1Nc1cccc(c1)COC/C=C/COCc1cc(ccc1OCCN1CCOCC1)N2
CDK5 with p25	enzyme activity, inhibitor, ADP detection	1 µM	–	activity vs control	92%	Cc1cc(C)nc(Nc2ccc([C@@H]3CCCN(C(=O)/C=C/c4csc(C)n4)C3)nc2)n1
CDK5 with p25	cell-free assay, inhibitor	1 µM	–	inhibition	3.2%	C=CC(=O)N1Cc2nc(-c3cc(-c4cc(Cl)cnc4Cl)c(F)cc3F)n(-c3ccncn3)c2C1
CDK5 with p25	enzyme activity, inhibitor	10 µM	–	activity vs control	102%	O=C(Cc1ccc(OCc2ccccc2)cc1)NC1(C(=O)O)CCN(C(=O)c2ccc(-c3cccc(Cl)c3)cc2)CC1
CDK5 with p35	kinase activity, inhibitor, ProQinase kinase profiling	25 µM	baseline: control	remaining activity	107% and 105%	COCC12C(=O)NC3C4(C(OC)CC1O)C1CC5(O)C(OC)C(O)C(OC(C)=O)(C1C5OC(=O)c1ccccc1)C3(O)C(OC)C24 (stereo not drawn)
CDK5 with p25	enzyme activity	100 nM, human enzyme, together with: 10 µM ATP	baseline: untreated	remaining activity	106%	O=C=[N][Ru-4]123([n]4c5ccc(O)cc5c5c6c(c7cc(F)c[n+]1c7c54)C(=O)NC6=O)[S+]1CC[S+]2CC[S+]3CC1 (stereo not drawn)
Cyclin-dependent kinase 5, inactive (CDK5, Homo sapiens, UniProt Q00535)	SelectScreen kinase profiling	0.1 µM	–	inhibition	8%	CN1CCN(Cc2ccc(-c3ccc(CO[C@H]4CCC[C@@H]4NC(=O)c4cc(-c5cnn(C)c5)cnc4N)cc3)cc2)CC1
CDK5 with p35	enzyme activity, inhibitor, ADP detection	1 µM	–	activity vs control	102%	Cc1nn(C)c(C)c1/C=C/C(=O)N1CCC[C@H](Cc2ccc(Nc3ccccn3)nn2)C1
CDK5 with p35	enzyme activity, inhibitor	10 µM	–	remaining activity	98%	CN1C[C@@H](c2c[nH]c3cc(Br)ccc23)NC[C@@H]1c1c[nH]c2cc(Br)ccc12
CDK5 with p25	kinase activity, KinaseProfiler	0.03 µM, species human	baseline: control	remaining activity	97%	COc1ccc(NC(=O)Nc2ccc3c(c2)C(=O)N(C(C)CO)CC(C)C(CN(C)Cc2ccc4c(c2)OCO4)O3)cc1 (stereo not drawn)
CDK5 with p25	enzyme activity, inhibitor	0.1 µM	–	inhibition	16%	C=CC(=O)Nc1cccc(-c2cnc3[nH]cc(C(=O)NC(C)(C)C)c3n2)c1
CDK5 with p35	enzyme activity, inhibitor, ADP detection	1 µM	–	activity vs control	101%	Cc1cc(C)nc(Nc2ccc([C@@H]3CCCN(C(=O)/C=C/c4c(C)nn(C)c4C)C3)nc2)n1
CDK5	enzyme activity, inhibitor	1 µM	–	inhibition	0%	Cc1cccc(O[C@H]2CCC[C@@H](C(C)CNCc3ccncc3)C2)c1 (relative stereo)
CDK5	cell-free assay, competition with immobilised ligand	10 µM	–	remaining binding	81%	CC(C)=CC1OC(C)(C)C2C=C3C(=O)C(Cl)=CC(O)C3C3C(O)C4OC4C(=O)C132 (stereo not drawn)

Excerpt of the above:
target	test	conditions	how to read	endpoint	value	Structure (SMILES)
CDK5 with p35	enzyme activity, inhibitor, ADP detection	1 µM	–	activity vs control	101%	Cc1cc(C)nc(Nc2ccc([C@@H]3CCCN(C(=O)/C=C/c4c(C)nn(C)c4C)C3)nc2)n1
CDK5	enzyme activity, inhibitor	1 µM	–	inhibition	0%	Cc1cccc(O[C@H]2CCC[C@@H](C(C)CNCc3ccncc3)C2)c1 (relative stereo)
